Measured values collected from several papers.
Lines come from different studies, so protocols differ. “And” joins repeats or separate records; there may be more than shown. ± marks the error that the study gave.
CNR2: Cannabinoid receptor 2 (CNR2, Homo sapiens, UniProt P34972)
Sequence of UniProt P34972 (whole entry, unmodified, looked up): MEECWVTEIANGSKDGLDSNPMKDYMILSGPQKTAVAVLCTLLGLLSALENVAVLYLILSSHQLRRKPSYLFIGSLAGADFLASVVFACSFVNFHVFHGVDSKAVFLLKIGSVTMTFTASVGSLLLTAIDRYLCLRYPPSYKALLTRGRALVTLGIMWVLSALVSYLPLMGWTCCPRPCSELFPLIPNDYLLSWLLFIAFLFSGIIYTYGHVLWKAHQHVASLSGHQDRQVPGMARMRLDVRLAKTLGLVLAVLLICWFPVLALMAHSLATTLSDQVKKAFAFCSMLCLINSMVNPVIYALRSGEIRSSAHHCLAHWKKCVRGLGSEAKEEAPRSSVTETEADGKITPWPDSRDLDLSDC

CCOC(=O)C(CC)(CC)NC(=O)c1ccc(C2CC2)c(Cc2ccc(F)cc2)n1  EC50 (CNR2; cAMP, agonist, TR-FRET): 6.5 nM
CC(O)CCn1cc(C(=O)c2cccc3ccccc23)c2ccccc21 (stereo not drawn)  Ki (CNR2; ligand displacement, radioligand; cell membranes): 31.4 nM and 31 nM
CCOC(=O)[C@@](CC)(CCCSCCOCCOCCNc1ccc([N+](=O)[O-])c2nonc12)NC(=O)c1ccc(C2CC2)c(Cc2ccc(F)cc2)n1  EC50 (CNR2; cAMP, agonist): 17 nM
O=C1C(=Cc2cn(Cc3ccc(F)cc3)c3ccccc23)N2CCC1CC2  IC50 (CNR2; cAMP level, agonist; CHO expressing human CB2; added: 10 µM forskolin): 3.6 ± 2.5 nM
CCCCn1cc(C(=O)c2cccc3ccccc23)c2cc(O)ccc21  Ki (CNR2; ligand displacement, radioligand; cell membranes): 185 nM
CCCCCn1cc(C(=O)c2cccc3c2CC(C)(C)C3)c2ccccc21  EC50 (CNR2; β-arrestin recruitment, agonist, BRET): 1200 nM
CC1=C[C@H]2c3c(O)cc(CCc4ccccc4)cc3OC(C)(C)[C@@H]2CC1  Ki (CNR2; ligand displacement, radioligand; cell membranes): 126 nM
CCOC(=O)[C@](CC)(CCCSCCOCCOCCNC(=O)c1ccc(-c2c3ccc(=N)c(S(=O)(=O)O)c-3oc3c(S(=O)(=O)O)c(N)ccc23)c(C(=O)O)c1)NC(=O)c1ccc(C2CC2)c(Cc2ccc(F)cc2)n1  Ki (CNR2; ligand displacement, radioligand; cell membranes): 44 nM
CCCCCn1cc(C(=O)c2ccc3ccccc3c2)c2ccccc21  EC50 (Cannabinoid receptor 2 (CNR2, Homo sapiens, UniProt P34972, L182I); G protein activation, agonist, BRET): 42.7 nM
CCOC(=O)C(CC)(CC)NC(=O)c1ccc(N2CC(OC)C2)c(OC[C@H]2C[C@@H]2CO)n1  Ki (CNR2; ligand displacement, radioligand; cell membranes): 0.3 nM
CCCCCn1cc(C(=O)c2ccc3c(c2)CC(C)(C)C3)c2ccccc21  EC50 (Cannabinoid receptor 2 (CNR2, Homo sapiens, UniProt P34972, V261L); G protein activation, agonist, BRET): 2820 nM
COC(=O)c1ccc2c(C=C3C(=O)C4CCN3CC4)cn(Cc3ccccc3)c2c1  IC50 (CNR2; cAMP level, agonist; CHO expressing human CB2; added: 10 µM forskolin): 48 ± 3.9 nM

Repeated from above:
CC(O)CCn1cc(C(=O)c2cccc3ccccc23)c2ccccc21 (stereo not drawn)  Ki (CNR2; ligand displacement, radioligand; cell membranes): 31.4 nM and 31 nM
CCOC(=O)[C@@](CC)(CCCSCCOCCOCCNc1ccc([N+](=O)[O-])c2nonc12)NC(=O)c1ccc(C2CC2)c(Cc2ccc(F)cc2)n1  EC50 (CNR2; cAMP, agonist): 17 nM
